# Measurements from different studies.
# Lines come from different studies, so protocols differ. Numbers after ± are the reported error.
# USP3 ZnF-UBD domain: Ubiquitin carboxyl-terminal hydrolase 3, ZnF-UBD domain (USP3, Homo sapiens, UniProt Q9Y6I4)
# UniProt Q9Y6I4, sequence (whole entry, looked up): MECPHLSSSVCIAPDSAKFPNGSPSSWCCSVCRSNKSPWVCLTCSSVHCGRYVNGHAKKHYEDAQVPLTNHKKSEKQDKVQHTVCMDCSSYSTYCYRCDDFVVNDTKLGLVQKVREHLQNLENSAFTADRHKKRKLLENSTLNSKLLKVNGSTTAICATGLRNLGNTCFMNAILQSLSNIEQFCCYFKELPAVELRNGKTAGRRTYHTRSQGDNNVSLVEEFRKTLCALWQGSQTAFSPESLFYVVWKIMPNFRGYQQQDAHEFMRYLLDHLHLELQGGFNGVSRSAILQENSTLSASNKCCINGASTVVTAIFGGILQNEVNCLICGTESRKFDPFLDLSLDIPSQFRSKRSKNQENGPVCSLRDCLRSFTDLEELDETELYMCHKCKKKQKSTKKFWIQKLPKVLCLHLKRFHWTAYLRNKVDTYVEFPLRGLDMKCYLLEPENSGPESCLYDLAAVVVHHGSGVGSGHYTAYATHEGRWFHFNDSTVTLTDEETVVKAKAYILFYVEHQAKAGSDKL
# LGB: Beta-lactoglobulin (LGB, Bos taurus, UniProt P02754)
# UniProt P02754, sequence (whole entry, looked up): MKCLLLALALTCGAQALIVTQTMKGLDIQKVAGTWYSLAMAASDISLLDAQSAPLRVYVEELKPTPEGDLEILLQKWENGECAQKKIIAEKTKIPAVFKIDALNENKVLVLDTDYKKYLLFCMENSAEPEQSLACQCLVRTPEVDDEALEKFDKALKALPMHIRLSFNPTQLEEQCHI
# UniProt P52564, sequence (whole entry, looked up): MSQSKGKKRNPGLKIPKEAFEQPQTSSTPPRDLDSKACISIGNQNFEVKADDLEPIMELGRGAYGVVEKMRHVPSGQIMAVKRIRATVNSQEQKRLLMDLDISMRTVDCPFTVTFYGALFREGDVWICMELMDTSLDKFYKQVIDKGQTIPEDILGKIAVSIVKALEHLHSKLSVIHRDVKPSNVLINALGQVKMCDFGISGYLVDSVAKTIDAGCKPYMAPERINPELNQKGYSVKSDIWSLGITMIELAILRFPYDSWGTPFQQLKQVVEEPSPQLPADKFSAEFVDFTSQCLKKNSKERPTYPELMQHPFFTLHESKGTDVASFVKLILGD
# UniProt P21169, sequence (whole entry, looked up): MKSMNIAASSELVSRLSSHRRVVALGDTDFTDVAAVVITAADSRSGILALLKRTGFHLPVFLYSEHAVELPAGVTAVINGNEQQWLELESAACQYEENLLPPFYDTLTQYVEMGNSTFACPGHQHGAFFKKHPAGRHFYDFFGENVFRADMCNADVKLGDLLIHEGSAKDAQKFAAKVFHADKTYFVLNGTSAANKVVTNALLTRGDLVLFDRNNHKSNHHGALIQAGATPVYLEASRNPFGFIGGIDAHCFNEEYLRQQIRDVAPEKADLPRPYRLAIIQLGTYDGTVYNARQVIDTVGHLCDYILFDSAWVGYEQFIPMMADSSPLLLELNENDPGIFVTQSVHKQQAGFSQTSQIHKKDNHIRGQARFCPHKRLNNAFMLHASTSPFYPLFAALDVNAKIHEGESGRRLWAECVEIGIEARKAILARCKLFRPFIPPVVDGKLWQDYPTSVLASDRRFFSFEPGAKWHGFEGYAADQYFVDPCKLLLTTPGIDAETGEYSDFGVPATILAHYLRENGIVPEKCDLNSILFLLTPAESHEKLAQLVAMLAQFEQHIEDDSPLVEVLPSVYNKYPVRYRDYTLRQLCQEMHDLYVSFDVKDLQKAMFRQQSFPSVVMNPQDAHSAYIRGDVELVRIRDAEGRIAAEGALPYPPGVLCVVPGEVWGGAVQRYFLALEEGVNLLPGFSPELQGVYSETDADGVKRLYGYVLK
# UniProt A3M2I8, sequence (whole entry, looked up): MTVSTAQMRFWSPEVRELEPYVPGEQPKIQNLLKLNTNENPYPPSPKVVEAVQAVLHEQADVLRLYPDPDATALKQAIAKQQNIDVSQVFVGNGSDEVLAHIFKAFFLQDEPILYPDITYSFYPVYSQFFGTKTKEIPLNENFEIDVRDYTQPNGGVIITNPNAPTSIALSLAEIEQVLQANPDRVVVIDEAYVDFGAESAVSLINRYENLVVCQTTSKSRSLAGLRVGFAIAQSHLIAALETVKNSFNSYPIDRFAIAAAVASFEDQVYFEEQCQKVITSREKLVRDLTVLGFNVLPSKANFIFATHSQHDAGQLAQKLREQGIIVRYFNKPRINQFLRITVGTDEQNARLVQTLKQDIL
# UniProt A3M3C8, sequence (whole entry, looked up): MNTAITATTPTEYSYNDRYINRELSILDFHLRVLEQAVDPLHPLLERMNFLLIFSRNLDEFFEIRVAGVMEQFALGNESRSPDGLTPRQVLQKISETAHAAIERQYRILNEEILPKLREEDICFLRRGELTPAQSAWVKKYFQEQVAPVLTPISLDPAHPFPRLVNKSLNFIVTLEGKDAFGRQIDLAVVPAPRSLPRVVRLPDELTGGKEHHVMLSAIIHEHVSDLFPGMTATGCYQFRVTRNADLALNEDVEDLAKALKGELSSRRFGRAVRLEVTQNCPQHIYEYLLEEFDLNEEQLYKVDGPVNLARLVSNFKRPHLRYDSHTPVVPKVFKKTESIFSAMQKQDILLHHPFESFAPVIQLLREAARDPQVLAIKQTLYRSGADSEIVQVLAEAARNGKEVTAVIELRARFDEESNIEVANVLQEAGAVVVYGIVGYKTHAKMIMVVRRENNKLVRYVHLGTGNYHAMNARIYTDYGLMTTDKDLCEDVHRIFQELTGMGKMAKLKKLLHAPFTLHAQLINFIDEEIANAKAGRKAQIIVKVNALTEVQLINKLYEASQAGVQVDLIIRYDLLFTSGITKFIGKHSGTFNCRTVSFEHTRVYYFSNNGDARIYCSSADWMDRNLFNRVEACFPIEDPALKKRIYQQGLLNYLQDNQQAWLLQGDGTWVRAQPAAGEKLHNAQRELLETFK
# UniProt P49750, sequence (whole entry, looked up): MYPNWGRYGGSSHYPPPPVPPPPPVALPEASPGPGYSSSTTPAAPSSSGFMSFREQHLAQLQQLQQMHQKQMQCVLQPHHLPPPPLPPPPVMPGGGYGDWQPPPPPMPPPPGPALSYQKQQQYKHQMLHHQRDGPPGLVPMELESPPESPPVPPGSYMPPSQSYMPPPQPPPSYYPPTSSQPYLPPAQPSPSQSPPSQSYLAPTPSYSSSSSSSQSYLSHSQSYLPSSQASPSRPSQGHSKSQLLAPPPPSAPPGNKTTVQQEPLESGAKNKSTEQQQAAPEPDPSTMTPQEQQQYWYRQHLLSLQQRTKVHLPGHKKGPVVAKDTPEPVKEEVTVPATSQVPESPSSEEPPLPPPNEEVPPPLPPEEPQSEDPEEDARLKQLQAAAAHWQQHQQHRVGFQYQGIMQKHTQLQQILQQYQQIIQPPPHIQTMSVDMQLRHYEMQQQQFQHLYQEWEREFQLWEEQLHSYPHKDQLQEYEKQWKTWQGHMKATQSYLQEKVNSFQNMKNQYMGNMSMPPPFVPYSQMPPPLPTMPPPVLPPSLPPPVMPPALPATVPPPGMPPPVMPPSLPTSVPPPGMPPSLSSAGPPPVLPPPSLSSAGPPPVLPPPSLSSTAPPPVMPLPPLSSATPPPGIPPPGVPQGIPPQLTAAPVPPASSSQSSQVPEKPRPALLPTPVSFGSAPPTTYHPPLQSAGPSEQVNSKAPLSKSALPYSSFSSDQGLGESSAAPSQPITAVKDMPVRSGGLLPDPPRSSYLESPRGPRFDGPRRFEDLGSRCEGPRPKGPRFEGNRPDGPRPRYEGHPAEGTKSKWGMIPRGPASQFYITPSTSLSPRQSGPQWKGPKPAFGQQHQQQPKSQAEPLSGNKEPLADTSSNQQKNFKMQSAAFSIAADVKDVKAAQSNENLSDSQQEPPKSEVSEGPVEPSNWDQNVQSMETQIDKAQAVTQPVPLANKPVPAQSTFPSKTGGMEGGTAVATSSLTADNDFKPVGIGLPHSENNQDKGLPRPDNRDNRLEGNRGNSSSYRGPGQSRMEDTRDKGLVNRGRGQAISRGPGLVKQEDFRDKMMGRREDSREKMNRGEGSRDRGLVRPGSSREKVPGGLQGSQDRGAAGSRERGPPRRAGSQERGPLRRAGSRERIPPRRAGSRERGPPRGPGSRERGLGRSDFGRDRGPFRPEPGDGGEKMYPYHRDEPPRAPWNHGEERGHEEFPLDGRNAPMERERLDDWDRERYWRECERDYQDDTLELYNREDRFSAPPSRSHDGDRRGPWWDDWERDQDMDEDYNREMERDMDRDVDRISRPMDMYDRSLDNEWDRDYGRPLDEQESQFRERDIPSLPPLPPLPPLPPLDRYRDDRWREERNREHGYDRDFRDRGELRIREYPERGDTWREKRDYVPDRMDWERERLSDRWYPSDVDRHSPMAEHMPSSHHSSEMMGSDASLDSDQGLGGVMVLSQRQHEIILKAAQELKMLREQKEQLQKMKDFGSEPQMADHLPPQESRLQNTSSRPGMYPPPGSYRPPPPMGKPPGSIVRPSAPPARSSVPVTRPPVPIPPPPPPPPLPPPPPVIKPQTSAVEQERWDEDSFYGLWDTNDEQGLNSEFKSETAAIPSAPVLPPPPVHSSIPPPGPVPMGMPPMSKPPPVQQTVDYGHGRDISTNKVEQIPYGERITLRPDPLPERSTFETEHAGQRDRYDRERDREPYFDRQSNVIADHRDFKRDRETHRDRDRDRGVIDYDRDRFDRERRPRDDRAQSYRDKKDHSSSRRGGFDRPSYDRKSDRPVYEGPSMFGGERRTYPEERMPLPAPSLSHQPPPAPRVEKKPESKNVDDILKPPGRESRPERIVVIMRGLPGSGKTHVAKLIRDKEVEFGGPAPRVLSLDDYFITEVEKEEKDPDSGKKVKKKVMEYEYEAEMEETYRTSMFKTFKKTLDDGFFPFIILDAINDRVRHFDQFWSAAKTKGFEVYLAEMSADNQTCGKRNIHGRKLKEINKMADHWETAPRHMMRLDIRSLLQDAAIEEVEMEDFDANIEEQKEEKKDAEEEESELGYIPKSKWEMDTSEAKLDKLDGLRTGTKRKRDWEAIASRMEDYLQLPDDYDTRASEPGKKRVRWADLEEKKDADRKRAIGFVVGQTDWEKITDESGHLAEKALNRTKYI
Structure (SMILES),target or system,test,system,setting,endpoint,result
O=c1cc(-c2ccc(O)cc2)oc2cc(O)c(O)c(O)c12,"Polyphosphate kinase (ppk, Acinetobacter baumannii, UniProt A3M3C8)","binding, surface plasmon resonance",,,Kd,54.4 µM
O=C(O)CCn1nnc(-c2ccccc2)n1,USP3 ZnF-UBD domain,,,,Kd,146 µM
CC[C@H](C)[C@H](NC(=O)[C@H](CCCNC(=N)N)NC(=O)[C@H](CO)NC(=O)[C@H](Cc1ccccc1)NC(=O)[C@H](Cc1ccccc1)NC(=O)[C@H](CC(C)C)NC(=O)[C@H](C)NC(=O)CNC(=O)[C@@H]1CCCN1C(=O)[C@H](CCCNC(=N)N)NC(=O)[C@H](CC(C)C)NC(=O)[C@H](CO)NC(=O)[C@@H](N)CC(N)=O)C(=O)N[C@@H](CC(N)=O)C(=O)N[C@@H](CCCCN)C(=O)N[C@H](C(=O)N[C@@H](CO)C(=O)N1CCC[C@H]1C(=O)N[C@H](C(=O)N[C@H](C(=O)O)[C@@H](C)O)C(C)C)[C@@H](C)O,"DNA repair protein REV1, C-terminal domain (Homo sapiens, UniProt Q9UBZ9)","binding, tryptophan fluorescence quenching",,,Kd,7.9 µM
CCCCCCCCCCCC1=C(O)C(=O)C=C(O)C1=O,de novo protein S23,"binding, NMR",,,Kd,1000 ± 520 µM
CN(C)c1ccc(/C=C\c2nc3ccc(OCCOCCOCCCF)cc3s2)cc1,"Amyloid-beta precursor protein, Aβ42 aggregates (APP, Homo sapiens, UniProt P05067)","binding, fluorescence saturation binding",preformed amyloid-beta aggregates in PBS,,Kd,0.111 ± 0.024 µM
NC[C@@H]1O[C@H](O[C@H]2[C@@H](O)[C@H](O[C@@H]3[C@@H](O)[C@H](N)C[C@H](N)[C@H]3O[C@H]3O[C@H](CO)[C@@H](O)[C@H](O)[C@H]3N)O[C@@H]2CO)[C@H](N)[C@@H](O)[C@@H]1O,de novo protein S23,NMR,,,Kd,15 to 20 µM
CC[C@@H]1[C@H](F)C(=O)N[C@@H]1COc1nccc2cc(C(N)=O)c(OC)cc12,"MAP2K6 (Homo sapiens, UniProt P52564)","ATP-site probe binding, inhibitor, ActivX ATP probe profiling",THP-1 cell lysate,probe site Lys1,IC50,3 µM
CCCCCCCC(=O)OC[C@H](COP(=O)(O)O[C@@H]1[C@H](O)[C@H](O)[C@@H](OP(=O)(O)O)[C@H](OP(=O)(O)O)[C@H]1O)OC(=O)CCCCCCC,Kv7.2/Kv7.3(EEE) mutant channel,"channel opening, activator, model fit of open probability",,"model 4, K2, K2 and K3 constrained",Kd,96 µM
O=C(O)CCc1ccccc1,USP3 ZnF-UBD domain,,,,Kd,178 µM
Cc1ncsc1-c1ccc(CNC(=O)[C@@H]2C[C@H](O)CN2C(=O)[C@@H](NC(=O)C2(F)CC2)C(C)(C)C)c(OCCc2ccc(CN3CCN(c4cc(-c5ccccc5O)nnc4N)CC3)cc2)c1,"SWI/SNF-related matrix-associated actin-dependent regulator of chromatin subfamily A member 4, bromodomain (SMARCA4, Homo sapiens, UniProt P51532)","binding, SPR",,6 °C,Kd,1.2 µM
CC1=C(/C=C/C(C)=C/C=C/C(C)=C/C=C/C=C(C)/C=C/C=C(C)/C=C/C2=C(C)CCCC2(C)C)C(C)(C)CCC1,LGB,"binding, fluorescence quenching",PBS,"30 min, 298 K",Kd,0.00168 µM
CC[C@H](C)[C@H](NC(=O)[C@H](CC(C)C)NC(=O)[C@H](Cc1ccc(OP(=O)(O)O)cc1)NC(=O)[C@H](CCC(=O)O)NC(=O)[C@H](CC(=O)O)NC(=O)[C@H](C)NC(=O)[C@H](CC(=O)O)NC(=O)[C@@H](NC(=O)[C@@H](NC(=O)[C@H](CC(=O)O)NC(=O)[C@H](CC(=O)O)NC(=O)[C@H](CCSC)NC(=O)c1ccc2c(c1)C(=O)OC21c2ccc(N(C)C)cc2Oc2cc(N(C)C)ccc21)C(C)C)C(C)C)C(=O)N1CCC[C@H]1C(=O)N[C@@H](CCC(N)=O)C(=O)N[C@@H](CCC(N)=O)C(=O)NCC(=O)N[C@@H](Cc1ccccc1)C(=O)N[C@@H](CC(=O)O)C(=O)O,"Adapter molecule crk, SH2 domain (Homo sapiens, UniProt P46108)",binding,,,Kd,0.47 µM
CC(=O)N1CC(C(=O)Nc2ccc([C@H]3[C@@H](F)[C@@H](F)C[C@@H](F)[C@H]3F)cc2)C1,,liver microsome stability,rat liver microsomes,1 µM,hepatic clearance,6.1 mL/min/kg
O=C(O)CNC(=O)c1ccc(S(=O)(=O)N2CCC(n3c(=O)oc4ccccc43)CC2)cc1,USP3 ZnF-UBD domain,,,,Kd,216 µM
C#Cc1c(F)ccc2cc(O)cc(-c3ncc4c(N5CC6CCC(C5)N6)nc(OC[C@@]56CCCN5C[C@H](F)C6)nc4c3F)c12,"GTPase HRas, GDP-bound (HRAS, Homo sapiens, UniProt P01112)","binding, SPR",,steady state,Kd,3.43 ± 0.73 µM
O=C(O)CCC(=O)c1cccs1,USP3 ZnF-UBD domain,,,,Kd,195 µM
CC(=O)N[C@H](C(=O)N[C@@H](CC(N)=O)C(=O)N[C@@H](CO)C(=O)N[C@H]1CSSC[C@@H](C(=O)NCC(=O)N[C@@H](CC(=O)O)C(=O)N[C@@H](CC(=O)O)C(=O)N[C@@H](CCCCNC(=O)CCCC(=O)NCCOCCOCCOCC(=O)NCCCC[C@H](NC(=O)COCCOCCOCCNC(=O)CCCC(=O)NCCCC[C@H](NC(=O)[C@H](CC(=O)O)NC(=O)[C@H](CC(=O)O)NC(=O)CNC(=O)[C@@H]2CSSC[C@H](NC(=O)[C@H](CO)NC(=O)[C@H](CC(N)=O)NC(=O)[C@@H](NC(C)=O)C(C)C)C(=O)N[C@@H](CC(C)C)C(=O)N[C@@H](CC(C)C)C(=O)N[C@@H](CC(C)C)C(=O)N3CCC[C@H]3C(=O)N[C@@H](CC(N)=O)C(=O)N[C@@H](CC(C)C)C(=O)N[C@@H](CC(C)C)C(=O)NCC(=O)N2)C(=O)N[C@@H](CCCCNC(=O)CCCC[C@@H]2SC[C@@H]3NC(=O)N[C@@H]32)C(N)=O)C(=O)NCc2cn(-c3cc(C(=O)NCCCCCC(=O)NCCCCCC(=O)NCCCCCC(=O)NCCCCCC(=O)NCCCCCC(=O)NCCCCCC(=O)NCc4cn(CCCC[C@H](NC(=O)N[C@@H](CCC(=O)O)C(=O)O)C(=O)O)nn4)cc(C(=O)NCCCCCC(=O)NCCCCCC(=O)NCCCCCC(=O)NCCCCCC(=O)NCCCCCC(=O)NCCCCCC(=O)NCc4cn(CCCC[C@H](NC(=O)N[C@@H](CCC(=O)O)C(=O)O)C(=O)O)nn4)c3)nn2)C(=O)N[C@@H](CCCCNC(=O)CCCC[C@@H]2SC[C@@H]3NC(=O)N[C@@H]32)C(N)=O)NC(=O)CNC(=O)[C@H](CC(C)C)NC(=O)[C@H](CC(C)C)NC(=O)[C@H](CC(N)=O)NC(=O)[C@@H]2CCCN2C(=O)[C@H](CC(C)C)NC(=O)[C@H](CC(C)C)NC(=O)[C@H](CC(C)C)NC1=O)C(C)C,"FOLH1 (Homo sapiens, UniProt Q04609)","bead phagocytosis, ternary complex model fit",,"added: PSMA 80 pM, FcγRI 800 pM",Kd,0.05 µM
COCCN(C)C(=O)c1ccc(C2CCCCC2)cc1,,liver microsome stability,mouse liver microsomes,1 µM,hepatic clearance,86 mL/min/kg
Cn1cncc1C1=CN(c2ncnc3[nH]cnc23)CC[S+]1[O-] (stereo not shown),"PRKACA (Homo sapiens, UniProt P17612)",binding,,,Kd,317 ± 283 µM
O=c1c(O)c(-c2ccc(O)cc2O)oc2cc(O)cc(O)c12,"Histidinol-phosphate aminotransferase (hisC, Acinetobacter baumannii, UniProt A3M2I8)",surface plasmon resonance,,,Kd,6.7 µM
COc1cc2oc(=O)cc(C)c2cc1CCC(=O)O,USP3 ZnF-UBD domain,,,,Kd,354 µM
CC[C@H](C)[C@H](NC(=O)[C@H](CO)NC(=O)[C@H](CCCNC(=N)N)NC(=O)[C@H](CC(=O)O)NC(=O)[C@H](CCSC)NC(=O)[C@H](CO)NC(=O)[C@H](CC(=O)O)NC(=O)CNC(=O)[C@@H](NC(=O)[C@H](CCC(N)=O)NC(=O)[C@H](C)NC(=O)[C@H](CC(C)C)NC(=O)[C@H](Cc1c[nH]cn1)NC(=O)[C@H](CCCNC(=N)N)NC(=O)[C@H](C)NC(=O)[C@@H](NC(=O)[C@H](CC(N)=O)NC(=O)[C@H](CCCNC(=N)N)NC(=O)[C@@H](NC(=O)[C@@H](NC(=O)[C@H](CC(=O)O)NC(=O)[C@H](CCC(=O)O)NC(C)=O)[C@@H](C)CC)[C@@H](C)CC)[C@@H](C)CC)C(C)C)C(N)=O,"Bcl-2 homologous antagonist/killer, part: residues 15–186 (BAK1, Homo sapiens, UniProt Q16611)",sedimentation equilibrium AUC,,,Kd,10.1 µM
O=C(O)CCC(=O)N1CCc2ccccc21,USP3 ZnF-UBD domain,,,,Kd,> 1000 µM
CC(C)=CCC/C(C)=C/C=C/C(C)=C/C=C/C(C)=C/C=C/C=C(C)/C=C/C=C(C)/C=C/C=C(\C)CCC=C(C)C,LGB,"binding, fluorescence quenching",PBS,"30 min, 308 K",Kd,21.4 µM
Cc1cc2nc3c(=O)[nH]c(=O)nc-3n(C[C@H](O)[C@H](O)[C@H](O)COP(=O)(O)OP(=O)(O)OC[C@H]3O[C@@H](n4cnc5c(N)ncnc54)[C@H](O)[C@@H]3O)c2cc1C,"YLP motif-containing protein 1 (YLPM1, Homo sapiens, UniProt P49750)","binding, MS pulldown competition",SW-620 cell lysate,,Kd,0.08 µM
O=C(O)CCc1cnn(-c2ccccc2)c1,USP3 ZnF-UBD domain,,,,Kd,> 1000 µM
Nc1nc2c(ncn2[C@H]2C[C@H](OP(=O)(O)OP(=O)(O)O)[C@@H](COP(=O)(O)OP(=O)(O)O)O2)c(=O)[nH]1,"speC (Escherichia coli, UniProt P21169)",,,,Kd,3.7 µM
[H]/N=C(/N)N[C@H]1[C@H](O)[C@@H](O)[C@H](O[C@@H]2O[C@@H](C)[C@](O)(C=O)[C@H]2O[C@@H]2O[C@@H](CO)[C@H](O)[C@@H](O)[C@@H]2NC)[C@@H](N/C(N)=N\[H])[C@@H]1O,de novo protein S23,"binding, NMR",,,Kd,650 ± 420 µM

# Excerpt of the above:
Structure (SMILES),target or system,test,system,setting,endpoint,result
COc1cc2oc(=O)cc(C)c2cc1CCC(=O)O,USP3 ZnF-UBD domain,,,,Kd,354 µM
O=C(O)CCc1cnn(-c2ccccc2)c1,USP3 ZnF-UBD domain,,,,Kd,> 1000 µM
COCCN(C)C(=O)c1ccc(C2CCCCC2)cc1,,liver microsome stability,mouse liver microsomes,1 µM,hepatic clearance,86 mL/min/kg
O=c1cc(-c2ccc(O)cc2)oc2cc(O)c(O)c(O)c12,"Polyphosphate kinase (ppk, Acinetobacter baumannii, UniProt A3M3C8)","binding, surface plasmon resonance",,,Kd,54.4 µM
